Published values from different studies.
Protocols differ between the studies behind these lines. Numbers after ± are the reported error.

Structure (SMILES) = Cc1cc(Nc2ncnc3ccc(NC4=NC(C)(CO)CO4)cc23)ccc1Oc1ccn2ncnc2c1 (centres unmarked); test system = human, plasma; setting = tucatinib, day 10, with: rifampin once daily; endpoint = AUC(0-t) (arithmetic mean); value = 350 ng·h/mL
Structure (SMILES) = Cl.[2H]C([2H])([2H])CC(=O)c1cnc(NC(=O)C2CC2)cc1Nc1cccc(-c2ncn(C([2H])([2H])[2H])n2)c1OC; assay = geometric mean; test system = human; setting = oral, 17.5 mg single dose, fasted, liquid; endpoint = AUC(0-t); value = 1900 ng·h/mL
Structure (SMILES) = CC(C)=CCC/C(C)=C/CC/C(C)=C/CC[C@@](C)(O)CCC1=C(C)C(=O)C(C)=C(C)C1=O; test system = healthy human, plasma; setting = oral, 400 mg; endpoint = AUC(0-t) geometric mean; value = 3130 ng·h/mL
Structure (SMILES) = Cc1cc(C)c(CNC(=O)c2cc(Cl)c3c(c2C)O[C@@](C)([C@H]2CC[C@H](N(C)C)CC2)O3)c(=O)[nH]1; assay = geometric LS mean; test system = healthy male humans, plasma; setting = oral, 25 mg, alone, fluconazole DDI study reference; endpoint = AUC(0-t); value = 563 ng·h/mL
Structure (SMILES) = NC1(C(=O)N[C@@H](CCO)c2ccc(Cl)cc2)CCN(c2nc[nH]c3nccc2-3)CC1; test system = human patients, plasma; setting = dose not given, cohort 160/320, cycle 0, geometric mean; endpoint = AUC(0-t); value = 2150 ng·h/mL
Structure (SMILES) = CN(CC#N)C(=O)C[C@H](Nc1nc2ccccc2[nH]1)c1cccc(C(F)(F)F)c1; test system = human; setting = intravenous infusion, 2 mg/kg, 10 mg/mL formulation; endpoint = AUC(0-t); value = 15900 ± 8600 ng·h/mL
Structure (SMILES) = C=CCn1c(=O)c2cnc(Nc3ccc(N4CCN(C)CC4)cc3)nc2n1-c1cccc(C(C)(C)O)n1; test system = human; setting = oral, 125 mg twice daily, monotherapy lead-in, -5 days; scale = geometric mean; endpoint = AUC(0-t); value = 4.18 µM·h
Structure (SMILES) = CCCCC1=NC2(CCCC2)C(=O)N1Cc1ccc(-c2ccccc2S(=O)(=O)Nc2noc(C)c2C)c(COCC)c1; test system = healthy humans, plasma; setting = oral, 800 mg; scale = baseline: fed over fasted; endpoint = AUC(0-t) ratio; value = 1.22
Structure (SMILES) = C=CC(=O)N(C)CCOc1c(N)ncnc1-c1cc(F)cc(NC(=O)c2ccc(C3CC3)cc2F)c1C; test system = human, whole blood; setting = oral, 60 mg, single ascending dose; endpoint = AUC(0-t); value = 206 ng·h/mL
Structure (SMILES) = CO[C@H]1C[C@@H]2CC[C@@H](C)[C@@](O)(O2)C(=O)C(=O)N2CCCC[C@H]2C(=O)O[C@H]([C@H](C)C[C@@H]2CC[C@@H](OC(=O)NCCOCCOCCOCCOCCOCCOCCOCCOCCC(=O)N3CCc4cc(Cn5nc(-c6ccc7oc(N)nc7c6)c6c(N)ncnc65)ccc4C3)[C@H](OC)C2)C[C@@H](O)[C@H](C)/C=C(\C)[C@@H](O)[C@@H](OC)C(=O)[C@H](C)C[C@H](C)/C=C/C=C/C=C/1C; test system = human, plasma; setting = intravenous, 6 mg, cycle 1 day 1, arithmetic mean; endpoint = AUC(0-t); value = 243 ng·h/mL
Structure (SMILES) = CCNCc1cc(Nc2ccnc3cc(Cl)ccc23)ccc1O; test system = humans, both sexes, plasma; setting = oral, outlier included; scale = baseline: fixed over non-fixed combination; endpoint = AUC(0-t) ratio; value = 0.71

Some of these lines once more:
Structure (SMILES) = Cc1cc(Nc2ncnc3ccc(NC4=NC(C)(CO)CO4)cc23)ccc1Oc1ccn2ncnc2c1 (centres unmarked); test system = human, plasma; setting = tucatinib, day 10, with: rifampin once daily; endpoint = AUC(0-t) (arithmetic mean); value = 350 ng·h/mL
